Published values from different studies.
pIC50, pKd: −log10 of the molar value.
PLK1: Serine/threonine-protein kinase PLK1 (PLK1, Homo sapiens, UniProt P53350)
Sequence of UniProt P53350 (whole entry, looked up): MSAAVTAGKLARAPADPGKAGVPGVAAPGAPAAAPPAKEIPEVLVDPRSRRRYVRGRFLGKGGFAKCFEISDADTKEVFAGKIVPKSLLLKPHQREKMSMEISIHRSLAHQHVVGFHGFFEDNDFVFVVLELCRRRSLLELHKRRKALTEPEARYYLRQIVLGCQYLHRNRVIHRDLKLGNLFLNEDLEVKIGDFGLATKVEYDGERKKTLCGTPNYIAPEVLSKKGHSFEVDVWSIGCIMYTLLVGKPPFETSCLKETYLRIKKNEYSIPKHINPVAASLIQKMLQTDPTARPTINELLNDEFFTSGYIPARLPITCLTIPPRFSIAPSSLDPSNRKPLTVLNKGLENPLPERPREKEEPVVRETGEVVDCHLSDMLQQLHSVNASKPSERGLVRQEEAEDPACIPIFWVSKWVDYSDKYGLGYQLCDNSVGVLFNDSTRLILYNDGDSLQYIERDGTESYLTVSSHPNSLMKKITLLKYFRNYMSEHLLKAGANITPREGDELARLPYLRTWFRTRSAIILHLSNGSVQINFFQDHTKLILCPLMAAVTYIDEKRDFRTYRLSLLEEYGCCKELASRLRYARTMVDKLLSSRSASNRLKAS
PLK1 polo-box: Serine/threonine-protein kinase PLK1, polo-box (PLK1, Homo sapiens, UniProt P53350)

SMILES | target | test | measurement | value
COc1cc(C(=O)NC2CCC(N3CCN(CC4CCC5(CCCC5)C4)CC3)CC2)c(F)cc1Nc1ncc2c(n1)N(C1CCCC1(F)F)CC(F)(F)C(=O)N2C (centres unmarked) | PLK1 | enzyme activity, inhibitor, ADP detection | pIC50 | 10.65
CC(C)C[C@H](NC(=O)[C@@H]1CCCN1C(=O)[C@@H]1CCCN1C(=O)[C@H](CC(N)=O)NC(=O)[C@@H](N)Cc1ccc(Cl)c(Cl)c1)C(=O)N[C@@H](Cc1c[nH]cn1)C(=O)N[C@@H](CO)C(=O)N[C@H](C(=O)N[C@@H](C)C(=O)O)[C@@H](C)OP(=O)(O)O | PLK1 polo-box | binding, MST | pKd | 7.17
CC[C@@H]1C(=O)N(C)c2cnc(Oc3ccc(C(=O)NCCCC[C@H](NC(C)=O)C(N)=O)cc3OC)nc2N1C1CCCC1 | PLK1 | enzyme activity, inhibitor, FRET | pIC50 | 6.02
N#Cc1cccc(CN2C[C@@H]3C[C@H](C2)c2c(-c4ccc5ccccc5c4)ccc(=O)n2C3)c1 | PLK1 | binding | pKd | 6.55
C=CC(=O)N1CCc2ccc(-n3c(=O)ccc4cnc5ccc(-c6cnn(C)c6)cc5c43)cc21 | PLK1 | enzyme activity, inhibitor | pIC50 | < 5.00
CSCC[C@H](NC(=O)[C@@H]1CCCN1C(=O)CN)C(=O)N[C@@H](CCC(N)=O)C(=O)N[C@@H](CO)C(=O)N[C@H](C(=O)N1CCC[C@H]1C(=O)N[C@@H](CC(C)C)C(=O)N[C@@H](CC(N)=O)C(=O)NCC(=O)O)[C@@H](C)OP(=O)(O)O | PLK1 polo-box | ligand displacement, FP | pIC50 | 5.95
CC[C@@H]1C(=O)N(C)c2cnc(Oc3ccc(C(=O)NCCCC[C@H](NC(C)=O)C(N)=O)cc3OC)nc2N1CC(C)C | PLK1 | enzyme activity, inhibitor | IC50 | no inhibition
COc1cc(C(=O)NC2CCC(N3CCN(C[C@H]4CC4(F)F)CC3)CC2)c(F)cc1Nc1ncc2c(n1)N([C@H]1CCCC1(F)F)CC(F)(F)C(=O)N2C (some centres unmarked) | PLK1 | enzyme activity, inhibitor, ADP detection | pIC50 | 10.25
